Experimental data pooled from the literature.
Compare with care: the assays were run in different laboratories. ± gives the spread as reported.
HLA class I histocompatibility antigen, A alpha chain allele A*02:01: HLA class I histocompatibility antigen, A alpha chain, allele A*02:01 (Homo sapiens, UniProt P04439)
ampC: Beta-lactamase (ampC, Escherichia coli K-12, UniProt P00811)
Chain of UniProt P00811 (whole entry, looked up): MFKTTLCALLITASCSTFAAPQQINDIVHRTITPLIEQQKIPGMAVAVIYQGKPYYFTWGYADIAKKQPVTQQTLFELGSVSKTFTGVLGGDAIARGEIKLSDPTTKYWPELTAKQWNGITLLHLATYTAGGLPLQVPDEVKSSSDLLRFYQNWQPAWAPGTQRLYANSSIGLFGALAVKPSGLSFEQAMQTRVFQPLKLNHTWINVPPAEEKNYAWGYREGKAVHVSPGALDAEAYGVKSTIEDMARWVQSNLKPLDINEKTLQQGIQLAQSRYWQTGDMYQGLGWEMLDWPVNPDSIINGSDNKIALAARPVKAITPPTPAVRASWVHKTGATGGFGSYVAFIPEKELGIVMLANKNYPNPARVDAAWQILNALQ
BLK SH2 domain: Tyrosine-protein kinase Blk, SH2 domain (BLK, Homo sapiens, UniProt P51451)
Chain of UniProt P51451 (whole entry, looked up): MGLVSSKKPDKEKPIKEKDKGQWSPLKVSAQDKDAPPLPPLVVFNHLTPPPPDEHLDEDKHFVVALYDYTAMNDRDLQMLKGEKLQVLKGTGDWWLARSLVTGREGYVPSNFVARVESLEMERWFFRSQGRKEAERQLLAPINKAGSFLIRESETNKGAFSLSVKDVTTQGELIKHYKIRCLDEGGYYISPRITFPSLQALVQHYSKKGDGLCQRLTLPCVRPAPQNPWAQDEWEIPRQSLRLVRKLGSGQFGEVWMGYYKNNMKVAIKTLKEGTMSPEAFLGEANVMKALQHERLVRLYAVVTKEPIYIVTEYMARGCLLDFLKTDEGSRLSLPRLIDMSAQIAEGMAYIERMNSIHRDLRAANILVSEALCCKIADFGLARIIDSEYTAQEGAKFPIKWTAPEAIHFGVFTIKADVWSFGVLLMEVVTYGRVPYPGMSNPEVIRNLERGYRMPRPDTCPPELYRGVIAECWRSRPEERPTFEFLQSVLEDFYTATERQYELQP
lacI N125C: lacI (Escherichia coli, UniProt P03023, N125C)
Chain of UniProt P03023 (whole entry, unmodified, looked up): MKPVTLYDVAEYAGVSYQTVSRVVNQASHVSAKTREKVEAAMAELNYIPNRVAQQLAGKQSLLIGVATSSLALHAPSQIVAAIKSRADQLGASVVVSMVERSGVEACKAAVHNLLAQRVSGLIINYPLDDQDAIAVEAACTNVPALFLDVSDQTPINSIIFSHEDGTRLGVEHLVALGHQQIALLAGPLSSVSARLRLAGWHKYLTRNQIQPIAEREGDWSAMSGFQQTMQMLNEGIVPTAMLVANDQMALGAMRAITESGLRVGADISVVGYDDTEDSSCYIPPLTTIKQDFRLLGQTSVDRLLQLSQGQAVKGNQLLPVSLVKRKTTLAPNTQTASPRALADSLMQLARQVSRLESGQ
HLA class I histocompatibility antigen, A alpha chain allele A*24:02: HLA class I histocompatibility antigen, A alpha chain, allele A*24:02 (Homo sapiens, UniProt P04439)
Chain of UniProt Q8N5H7 (whole entry, looked up): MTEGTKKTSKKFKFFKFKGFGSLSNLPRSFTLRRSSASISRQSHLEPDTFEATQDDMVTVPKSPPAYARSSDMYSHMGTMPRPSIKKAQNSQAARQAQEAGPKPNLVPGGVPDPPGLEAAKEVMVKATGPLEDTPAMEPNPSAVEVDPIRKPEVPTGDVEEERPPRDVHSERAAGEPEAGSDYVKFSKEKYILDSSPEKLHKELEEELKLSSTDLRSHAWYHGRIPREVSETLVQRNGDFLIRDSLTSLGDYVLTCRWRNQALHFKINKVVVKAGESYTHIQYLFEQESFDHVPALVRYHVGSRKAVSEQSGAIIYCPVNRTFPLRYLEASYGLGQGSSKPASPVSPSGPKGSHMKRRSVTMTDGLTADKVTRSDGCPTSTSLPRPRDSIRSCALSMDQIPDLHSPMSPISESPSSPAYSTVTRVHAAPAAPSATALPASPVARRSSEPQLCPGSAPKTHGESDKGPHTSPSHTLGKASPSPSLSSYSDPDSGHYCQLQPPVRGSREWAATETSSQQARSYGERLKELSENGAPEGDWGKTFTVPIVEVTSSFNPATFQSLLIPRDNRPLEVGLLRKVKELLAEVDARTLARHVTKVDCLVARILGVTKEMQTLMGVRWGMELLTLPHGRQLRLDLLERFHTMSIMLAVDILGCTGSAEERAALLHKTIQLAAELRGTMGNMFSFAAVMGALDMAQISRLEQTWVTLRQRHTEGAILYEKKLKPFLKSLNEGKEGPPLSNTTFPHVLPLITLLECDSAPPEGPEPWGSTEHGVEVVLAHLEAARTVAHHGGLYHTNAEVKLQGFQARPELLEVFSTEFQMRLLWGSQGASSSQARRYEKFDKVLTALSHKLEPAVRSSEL
Chain of UniProt P51532 (whole entry, looked up): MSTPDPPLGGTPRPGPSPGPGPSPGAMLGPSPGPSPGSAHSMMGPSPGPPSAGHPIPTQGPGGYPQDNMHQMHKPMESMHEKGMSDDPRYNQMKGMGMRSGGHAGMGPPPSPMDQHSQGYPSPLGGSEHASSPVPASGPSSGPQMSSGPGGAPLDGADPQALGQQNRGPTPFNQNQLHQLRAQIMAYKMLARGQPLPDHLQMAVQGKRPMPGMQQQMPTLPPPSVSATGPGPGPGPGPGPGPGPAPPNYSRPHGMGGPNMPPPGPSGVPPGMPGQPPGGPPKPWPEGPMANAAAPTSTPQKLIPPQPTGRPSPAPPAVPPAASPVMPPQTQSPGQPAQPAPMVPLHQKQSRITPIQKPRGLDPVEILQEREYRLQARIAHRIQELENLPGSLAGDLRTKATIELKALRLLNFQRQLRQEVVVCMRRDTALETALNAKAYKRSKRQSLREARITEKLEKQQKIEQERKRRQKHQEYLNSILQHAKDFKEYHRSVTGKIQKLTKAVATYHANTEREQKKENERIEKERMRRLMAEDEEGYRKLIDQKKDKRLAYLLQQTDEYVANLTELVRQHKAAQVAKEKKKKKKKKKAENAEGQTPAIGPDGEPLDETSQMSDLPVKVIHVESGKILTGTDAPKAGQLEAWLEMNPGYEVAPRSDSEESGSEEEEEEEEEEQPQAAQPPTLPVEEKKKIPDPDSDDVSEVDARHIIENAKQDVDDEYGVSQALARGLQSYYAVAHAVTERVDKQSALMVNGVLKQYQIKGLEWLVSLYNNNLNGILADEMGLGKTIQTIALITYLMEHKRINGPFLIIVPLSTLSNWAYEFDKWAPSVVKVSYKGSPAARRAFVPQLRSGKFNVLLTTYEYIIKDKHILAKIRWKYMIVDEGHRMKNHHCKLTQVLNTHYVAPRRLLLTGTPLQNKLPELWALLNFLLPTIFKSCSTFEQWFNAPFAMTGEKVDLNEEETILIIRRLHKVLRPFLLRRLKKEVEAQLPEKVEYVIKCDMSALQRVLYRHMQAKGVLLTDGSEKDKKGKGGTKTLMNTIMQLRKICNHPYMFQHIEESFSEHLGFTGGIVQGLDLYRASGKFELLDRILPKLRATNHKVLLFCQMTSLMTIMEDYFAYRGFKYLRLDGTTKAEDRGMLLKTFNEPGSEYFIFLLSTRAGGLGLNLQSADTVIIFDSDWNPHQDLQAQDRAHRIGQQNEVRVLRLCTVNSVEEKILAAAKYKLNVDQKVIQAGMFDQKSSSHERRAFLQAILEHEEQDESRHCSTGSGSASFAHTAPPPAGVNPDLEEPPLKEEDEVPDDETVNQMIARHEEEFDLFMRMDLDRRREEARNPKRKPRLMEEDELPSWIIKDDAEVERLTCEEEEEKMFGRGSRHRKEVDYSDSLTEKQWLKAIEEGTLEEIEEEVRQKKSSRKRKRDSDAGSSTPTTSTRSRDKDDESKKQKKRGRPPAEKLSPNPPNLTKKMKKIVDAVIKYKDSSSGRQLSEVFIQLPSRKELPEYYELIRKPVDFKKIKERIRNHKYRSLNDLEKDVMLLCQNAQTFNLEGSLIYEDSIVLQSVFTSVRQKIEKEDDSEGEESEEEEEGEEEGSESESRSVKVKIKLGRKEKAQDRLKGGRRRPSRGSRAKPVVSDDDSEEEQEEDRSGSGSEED
Chain of UniProt P17812 (whole entry, looked up): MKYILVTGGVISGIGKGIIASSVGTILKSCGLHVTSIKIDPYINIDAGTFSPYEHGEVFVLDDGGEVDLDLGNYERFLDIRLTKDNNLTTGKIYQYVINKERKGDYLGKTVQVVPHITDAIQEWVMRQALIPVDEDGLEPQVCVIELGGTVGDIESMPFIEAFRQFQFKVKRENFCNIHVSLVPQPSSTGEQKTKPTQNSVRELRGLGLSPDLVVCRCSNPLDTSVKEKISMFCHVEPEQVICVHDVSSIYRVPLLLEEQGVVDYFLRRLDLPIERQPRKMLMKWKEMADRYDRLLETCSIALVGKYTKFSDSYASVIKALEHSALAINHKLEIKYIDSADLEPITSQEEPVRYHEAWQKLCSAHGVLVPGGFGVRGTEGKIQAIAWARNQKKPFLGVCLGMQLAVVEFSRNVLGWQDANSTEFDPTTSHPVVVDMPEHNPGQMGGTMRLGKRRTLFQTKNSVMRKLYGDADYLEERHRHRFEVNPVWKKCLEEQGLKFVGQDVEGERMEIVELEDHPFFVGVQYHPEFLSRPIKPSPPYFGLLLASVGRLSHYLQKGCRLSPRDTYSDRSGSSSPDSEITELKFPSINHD
Chain of UniProt P43378 (whole entry, looked up): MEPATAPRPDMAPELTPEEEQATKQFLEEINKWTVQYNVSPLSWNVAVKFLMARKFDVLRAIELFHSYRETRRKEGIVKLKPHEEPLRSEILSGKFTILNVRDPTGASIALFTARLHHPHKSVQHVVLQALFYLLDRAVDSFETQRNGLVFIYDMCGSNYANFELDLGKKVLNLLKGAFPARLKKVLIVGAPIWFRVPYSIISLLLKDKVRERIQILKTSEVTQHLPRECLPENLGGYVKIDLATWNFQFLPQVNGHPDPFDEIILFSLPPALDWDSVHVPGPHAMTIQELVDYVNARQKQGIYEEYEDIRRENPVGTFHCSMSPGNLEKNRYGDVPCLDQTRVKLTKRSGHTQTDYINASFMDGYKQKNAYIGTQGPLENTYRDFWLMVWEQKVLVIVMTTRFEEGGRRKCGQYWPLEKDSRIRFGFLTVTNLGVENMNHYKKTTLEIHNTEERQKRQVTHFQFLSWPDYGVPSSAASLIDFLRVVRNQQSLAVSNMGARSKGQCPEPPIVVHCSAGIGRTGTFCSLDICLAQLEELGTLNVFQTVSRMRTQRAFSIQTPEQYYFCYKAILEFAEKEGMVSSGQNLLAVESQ

CSCC[C@H](NC(=O)[C@@H](N)Cc1ccc(O)cc1)C(=O)N[C@@H](CC(=O)O)C(=O)N1CCC[C@H]1C(=O)N[C@H](C(=O)N1CCC[C@H]1C(=O)N[C@@H](CC(C)C)C(=O)N[C@@H](CCC(N)=O)C(=O)N[C@@H](Cc1ccccc1)C(=O)O)C(C)C
IC50 (HLA class I histocompatibility antigen, A alpha chain allele A*02:01; binding): 0.516 µM

Cc1ccsc1C(Cc1ccccc1)NS(=O)(=O)c1cnn(C)c1C(=O)O (stereo not shown)
Ki (ampC): 224 µM

CSCC[C@H](NC(=O)[C@H](CCC(N)=O)NC(=O)[C@H](Cc1c[nH]cn1)NC(=O)[C@@H]1CCCN1C(=O)[C@H](Cc1ccccc1)NC(=O)[C@H](CCC(N)=O)NC(=O)[C@@H](N)Cc1ccccc1)C(=O)N[C@H](C(=O)N[C@@H](Cc1ccccc1)C(=O)O)[C@@H](C)O
IC50 (HLA class I histocompatibility antigen, A alpha chain allele A*02:01; binding): 1.53 µM

CSCC[C@H](NC(=O)CNC(=O)[C@H](Cc1ccccc1)NC(=O)[C@H](CC(=O)O)NC(=O)CNC(=O)c1ccc2c(c1)C(=O)OC21c2ccc(N(C)C)cc2Oc2cc(N(C)C)ccc21)C(=O)N[C@@H](CO)C(=O)N[C@@H](CCCNC(=N)N)C(=O)N[C@@H](CC(=O)O)C(=O)N[C@H](C(=O)N[C@@H](Cc1ccc(OP(=O)(O)O)cc1)C(=O)N[C@@H](CO)C(=O)N[C@H](C(=O)N[C@@H](CC(=O)O)C(=O)N[C@@H](Cc1ccc(O)cc1)C(=O)N[C@@H](Cc1ccc(O)cc1)C(=O)N[C@@H](CCCNC(=N)N)C(=O)N[C@H](C(=O)N[C@@H](CC(=O)O)C(=O)O)C(C)C)[C@@H](C)O)C(C)C
Kd (BLK SH2 domain; binding): 0.264 µM

COC(=O)C(CC1CC=CCC1)NS(=O)(=O)c1cccc(Cl)c1O (stereo not shown)
Ki (ampC): 137 µM

CC(C)S[C@@H]1O[C@H](CO)[C@H](O)[C@H](O)[C@H]1O
Kd (lacI (Escherichia coli, UniProt P03023, D149A); binding, fluorescence titration; no operator DNA): 4.2 ± 0.3 µM

C=CCCC(NS(=O)(=O)c1cccc(Cl)c1O)C(=O)OC (stereo not shown)
Ki (ampC): 112 µM

OC[C@H]1O[C@@H](OCCc2ccccc2)[C@H](O)[C@@H](O)[C@H]1O
EC50 (lacI N125C; operator DNA release, nitrocellulose filter binding; with: O1 operator DNA): 180 ± 12 µM

Cc1ncsc1-c1ccc(CNC(=O)[C@@H]2C[C@@H](O)CN2C(=O)[C@@H](NC(=O)C2(F)CC2)C(C)(C)C)c(OCCOc2ccc(CN3CCN(c4cc(-c5ccccc5O)nnc4N)CC3)cc2)c1
DC50 (SMARCA4 (Homo sapiens, UniProt P51532); degrader, immunoblot; SMARCA4 wild-type lung cancer cells; 96 h, median of twelve cell lines): 0.0313 µM

Cn1ccnc1Sc1ccc(NS(=O)(=O)c2cccc(Cl)c2O)cc1
Ki (ampC): 189 µM

CSCC[C@H](NC(=O)[C@@H](N)CCCNC(=N)N)C(=O)N[C@@H](Cc1c[nH]c2ccccc12)C(=O)N[C@@H](CO)C(=O)N[C@@H](CCCCN)C(=O)N1CCC[C@H]1C(=O)N[C@@H](CC(C)C)C(=O)N[C@@H](CCC(N)=O)C(=O)N[C@@H](Cc1ccccc1)C(=O)O
IC50 (HLA class I histocompatibility antigen, A alpha chain allele A*02:01; binding): 1.81 µM

C[C@H]1O[C@@H](Oc2ccccc2[N+](=O)[O-])[C@H](O)[C@@H](O)[C@H]1O
EC50 (lacI N125C; operator DNA binding, nitrocellulose filter binding; with: O1 operator DNA): 40 ± 3.8 µM

CC[C@H](C)[C@H](NC(=O)c1ccc2c(c1)C(=O)OC21c2ccc(N(C)C)cc2Oc2cc(N(C)C)ccc21)C(=O)N[C@@H](CCC(=O)O)C(=O)N[C@@H](CO)C(=O)N[C@@H](CO)C(=O)N[C@@H](CC(N)=O)C(=O)N[C@@H](Cc1ccc(O)cc1)C(=O)N[C@@H](CCSC)C(=O)N[C@@H](C)C(=O)N1CCC[C@H]1C(=O)N[C@@H](Cc1ccc(OP(=O)(O)O)cc1)C(=O)N[C@@H](CC(=O)O)C(=O)N[C@@H](CC(N)=O)C(=O)N[C@@H](Cc1ccc(O)cc1)C(=O)N[C@H](C(=O)N1CCC[C@H]1C(=O)N[C@@H](CO)C(=O)N[C@@H](C)C(=O)N[C@@H](CC(=O)O)C(=O)O)C(C)C
Kd (SH2 domain-containing protein 3C, SH2 domain (SH2D3C, Homo sapiens, UniProt Q8N5H7); binding): 1.61 µM

C[C@H]1CN(c2n[nH]c3nc(N[C@H]4CC[C@H](NS(=O)(=O)CCC(F)(F)F)CC4)ncc23)CCO1
IC50 (CTP synthase 1 (Homo sapiens, UniProt P17812); biochemical): ≥ 20 µM

CSCC[C@H](NC(=O)[C@H](CO)NC(=O)[C@H](CC(C)C)NC(=O)[C@H](CO)NC(=O)[C@H](Cc1c[nH]cn1)NC(=O)CNC(=O)[C@H](Cc1ccc(O)cc1)NC(=O)[C@H](CC(C)C)NC(=O)[C@@H](N)CCCNC(=N)N)C(=O)O
IC50 (HLA class I histocompatibility antigen, A alpha chain allele A*24:02; binding): 34.1 µM

COC(=O)C(Cc1cccs1)NS(=O)(=O)c1cccc(Cl)c1O (stereo not shown)
Ki (ampC): 168 µM

CSCC[C@H](NC(=O)[C@@H](N)CCCNC(=N)N)C(=O)N[C@@H](Cc1ccccc1)C(=O)N[C@@H](CCCCN)C(=O)N[C@@H](Cc1c[nH]cn1)C(=O)N1CCC[C@H]1C(=O)N[C@@H](CC(C)C)C(=O)N[C@@H](CCC(N)=O)C(=O)N[C@@H](Cc1ccccc1)C(=O)O
IC50 (HLA class I histocompatibility antigen, A alpha chain allele A*24:02; binding): 0.089 µM

CSCC[C@H](NC(=O)[C@H](CC(=O)O)NC(=O)c1ccc2c(c1)C(=O)OC21c2ccc(N(C)C)cc2Oc2cc(N(C)C)ccc21)C(=O)N[C@@H](CO)C(=O)N[C@@H](CCCCN)C(=O)N[C@@H](CC(=O)O)C(=O)N[C@@H](CCC(=O)O)C(=O)N[C@@H](CO)C(=O)N[C@H](C(=O)N[C@@H](CC(=O)O)C(=O)N[C@@H](Cc1ccc(OP(=O)(O)O)cc1)C(=O)N[C@H](C(=O)N1CCC[C@H]1C(=O)N[C@@H](CCSC)C(=O)N[C@@H](CC(C)C)C(=O)N[C@@H](CC(=O)O)C(=O)N[C@@H](CCSC)C(=O)N[C@@H](CCCCN)C(=O)N[C@@H](CC(=O)O)C(=O)O)C(C)C)C(C)C
Kd (BLK SH2 domain; binding): 0.258 µM

CSCC[C@H](NC(=O)[C@@H](N)Cc1ccc(O)cc1)C(=O)N[C@@H](Cc1ccc(O)cc1)C(=O)N[C@H](C(=O)N[C@@H](CCCCN)C(=O)N[C@@H](Cc1ccccc1)C(=O)N[C@@H](Cc1c[nH]cn1)C(=O)N[C@H](C(=O)N[C@@H](Cc1ccc(O)cc1)C(=O)O)[C@@H](C)O)[C@@H](C)O
IC50 (HLA class I histocompatibility antigen, A alpha chain allele A*24:02; binding): 5.21 µM

COc1cc(Nc2ncc(F)c(Nc3ccc4c(n3)NC(=O)C(C)(C)O4)n2)cc(OC)c1OC
IC50 (PTPN9 (Homo sapiens, UniProt P43378); MEG2): > 10 µM

COC(=O)C(C)c1cccc(NS(=O)(=O)c2cc(Cl)cc(Cl)c2O)c1 (stereo not shown)
Ki (ampC): 21 µM

CC(C)C[C@H](NC(=O)[C@@H](N)Cc1c[nH]cn1)C(=O)N[C@@H](Cc1ccccc1)C(=O)N1CCC[C@H]1C(=O)N[C@@H](CCCNC(=N)N)C(=O)N[C@H](C(=O)N[C@@H](Cc1c[nH]cn1)C(=O)N[C@@H](Cc1ccc(O)cc1)C(=O)N[C@@H](Cc1ccccc1)C(=O)O)[C@@H](C)O
IC50 (HLA class I histocompatibility antigen, A alpha chain allele A*02:01; binding): 0.828 µM
